Measurements from different studies.
Every numbered part comes from another study and shows a few of its results, in no order.

Study 1
Target: Beta-1 adrenergic receptor (ADRB1, Homo sapiens, UniProt P08588)
Sequence of UniProt P08588 (whole entry, looked up): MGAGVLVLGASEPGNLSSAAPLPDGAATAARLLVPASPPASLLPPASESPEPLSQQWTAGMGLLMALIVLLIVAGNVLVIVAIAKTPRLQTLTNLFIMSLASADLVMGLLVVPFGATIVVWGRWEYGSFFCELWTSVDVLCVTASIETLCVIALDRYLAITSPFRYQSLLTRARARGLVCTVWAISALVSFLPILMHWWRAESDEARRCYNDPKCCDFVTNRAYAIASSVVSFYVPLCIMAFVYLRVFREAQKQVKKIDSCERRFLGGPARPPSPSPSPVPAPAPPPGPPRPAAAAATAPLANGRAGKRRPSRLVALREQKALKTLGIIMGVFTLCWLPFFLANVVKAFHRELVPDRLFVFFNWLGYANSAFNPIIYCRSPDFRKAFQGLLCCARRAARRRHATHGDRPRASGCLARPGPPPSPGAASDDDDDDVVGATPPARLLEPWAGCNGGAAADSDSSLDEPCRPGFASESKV
Mode: agonist
Endpoint: EC50
SMILES = CN1C(=O)COC[C@@H]1[C@H](O)c1ccc(NC(=O)Cc2ccccc2)cc1; value = ≥ 100 µM
SMILES = Cc1cc(-c2cc(-c3cccc(C(F)(F)F)c3)nc3c(C)noc23)ccn1; value = ≥ 100 µM
SMILES = Cc1cc2ncn(CC(O)COc3ccc4ccccc4c3)c2cc1C (stereo not drawn); value = ≥ 100 µM
SMILES = c1cnc(OCC2CCCN(c3ccc4ccccc4n3)C2)nc1 (stereo not drawn); value = ≥ 100 µM
SMILES = O=C(c1cc(-c2ccc(F)cc2)nc2ccccc12)N1CCCC(c2nc(C3CCOCC3)no2)C1 (stereo not drawn); value = ≥ 100 µM
SMILES = Fc1ccc(-c2nnc3ccc(N4CCc5ccccc5CC4)nn23)nc1; value = ≥ 100 µM
SMILES = Cc1cc(-c2nc3ccccc3s2)nc2ccccc12; value = ≥ 100 µM
SMILES = O=C(NCCc1ccccn1)c1ccnc(-c2nnc3ccc(N4CCOCC4)nn23)c1; value = ≥ 100 µM

Study 2
Target: Calcium/calmodulin-dependent protein kinase type II subunit alpha (CAMK2A, Homo sapiens, UniProt Q9UQM7)
Sequence of UniProt Q9UQM7 (whole entry, looked up): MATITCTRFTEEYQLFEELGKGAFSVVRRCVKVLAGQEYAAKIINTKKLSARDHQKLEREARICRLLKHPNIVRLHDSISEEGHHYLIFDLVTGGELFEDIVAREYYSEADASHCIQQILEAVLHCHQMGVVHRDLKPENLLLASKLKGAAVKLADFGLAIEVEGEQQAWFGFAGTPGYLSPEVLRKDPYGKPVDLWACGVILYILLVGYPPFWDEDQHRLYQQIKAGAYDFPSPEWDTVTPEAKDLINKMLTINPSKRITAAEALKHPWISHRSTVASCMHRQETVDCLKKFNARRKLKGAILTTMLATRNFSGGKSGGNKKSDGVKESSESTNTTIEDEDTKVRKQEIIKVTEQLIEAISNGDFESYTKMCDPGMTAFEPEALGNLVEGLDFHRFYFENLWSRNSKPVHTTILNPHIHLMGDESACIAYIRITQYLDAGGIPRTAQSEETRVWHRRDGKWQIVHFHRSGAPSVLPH
Effect on: enzyme activity
Mode: inhibitor
Tested at: 10 µM
Endpoint: inhibition
SMILES = CC1CC(OC(=O)C(O)c2ccccc2)CC(C)(C)C1 (stereo not drawn); value = -6%
SMILES = C[C@H](O)C(=O)O; value = 0%
SMILES = Cc1cccc2c3c(ccc12)C1=C(C(=O)C3=O)[C@@H](C)CO1; value = 3%
SMILES = CCC(=O)NCC[C@@H]1CCc2ccc3c(c21)CCO3; value = 3%
SMILES = CC(=O)NCCCS(=O)(=O)O; value = -6%
SMILES = O=C1C[C@@H](c2ccccc2)Oc2cc(O)cc(O)c21; value = -19%
SMILES = COc1ccc(/C=C/C(=O)c2cc(CC=C(C)C)c(OC)cc2O)cc1; value = 19%
SMILES = Cc1c(C(=O)NN2CCCCC2)nn(-c2ccc(Cl)cc2Cl)c1-c1ccc(Cl)cc1; value = -4%

Further values, each from its own experiment
Structure (SMILES) = CC(C)(C)c1nc(-c2cccc(NS(=O)(=O)c3c(F)cccc3F)c2F)c(-c2ccnc(N)n2)s1; target or system = L929; test = necroptosis protection, CCK-8; conditions = 3.125 µM, added: TNF-α-induced; endpoint = viability; value = 29.2%
Structure (SMILES) = CC(C)n1cnc(-c2ccc(F)cc2)c1-c1ncc(C(=O)Nc2ccc(N3CCN(C)CC3)cc2)[nH]1; system = human, idiopathic pulmonary fibrosis; conditions = 30 mg once daily, trial, treatment-emergent; endpoint = patients with Paronychia; value = 0%

Some of these lines once more (study 2):
SMILES = Cc1cccc2c3c(ccc12)C1=C(C(=O)C3=O)[C@@H](C)CO1; value = 3%
SMILES = CCC(=O)NCC[C@@H]1CCc2ccc3c(c21)CCO3; value = 3%
SMILES = CC(=O)NCCCS(=O)(=O)O; value = -6%
